Results collected from several papers.
Each numbered part is a random draw from the data of one study; scales do not carry over between parts. Positions count from the first letter of the parent shown.

Study 1 — target: UBE2D4 UBC core domain (UniProt Q9Y2X8); method: yeast two-hybrid; sample: yeast; setting: mostly zero background; reference: not given; reading: higher = stronger interaction
B1: TRIM74 RING domain (UniProt Q86UV6); chain SLLELEDWLQCPICLEVFKESLMLQCGHSYCKGCLVSLSYHLDTKVRCPMCWQVVDGSSSLP
Construct (chain): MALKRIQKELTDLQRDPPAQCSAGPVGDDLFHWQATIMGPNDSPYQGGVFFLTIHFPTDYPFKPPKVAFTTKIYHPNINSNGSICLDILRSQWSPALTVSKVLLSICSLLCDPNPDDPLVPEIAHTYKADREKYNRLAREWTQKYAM
`B1 (TRIM74 RING domain)` — result for “lacZ reporter activity”: 0.
For `PLRRLQEEKLCKICMDRHIAVVFIPCGHLVTCKQCAEAVDRCPMCSAVIDFKQRVF (BIRC8 RING domain (UniProt Q96P09))`, “lacZ reporter activity” read 0.
For `FLSKVEETFQCICCQELVFRPITTVCQHNVCKDCLDRSFRAQVFSCPACRYDLGRSYAMQ (UHRF1 RING domain (UniProt Q96T88))`, “lacZ reporter activity” read 0.
Under “lacZ reporter activity”, `AAQLLEEKLTCAICLGLYQDPVTLPCGHNFCGACIRDWWDRCGKACPECREPFPDGAELR (TRIM65 RING domain (UniProt Q6PJ69))` is recorded as 0.
`EIKDYKARLTCPCCNMRKKDAVLTKCFHVFCFECVKTRYDTRQRKCPKCNAAFGANDFHR (RNF20 RING domain (UniProt Q5VTR2))` — result for “lacZ reporter activity”: 0.

Study 2 — method: RNA Bind-n-Seq; molecule type: RNA; sample: in vitro; concentration: 20 nM; setting: 6-mer, flanks averaged, single round; together with: 150 mM KCl; reference: input library; reading: higher = stronger binding
Target: TAR DNA-binding protein 43, full length, His tag (TARDBP, Homo sapiens, UniProt Q13148, residues 1-414)
`CGUUCG`: “6-mer enrichment (R)” 0.712.
`CUCCCA` — result for “6-mer enrichment (R)”: 0.669.
`CUUGUC`: “6-mer enrichment (R)” 0.609.
`UAGCCA` — result for “6-mer enrichment (R)”: 0.659.
`ACCCGG`: “6-mer enrichment (R)” 0.881.
For `GAAGGC`, “6-mer enrichment (R)” read 1.43.
`ACACCU` — result for “6-mer enrichment (R)”: 0.652.
Under “6-mer enrichment (R)”, `UUUAAG` is recorded as 0.66.

Study 3 — target: CCNA1, cyclin fold, Cln2 fusion (human); method: yeast growth competition, sequencing; sample: yeast; setting: strong parent motif; reference: not given; reading: higher = stronger binding
Starting sequence: viral docking peptide; TSVRRALFTGGSD; partner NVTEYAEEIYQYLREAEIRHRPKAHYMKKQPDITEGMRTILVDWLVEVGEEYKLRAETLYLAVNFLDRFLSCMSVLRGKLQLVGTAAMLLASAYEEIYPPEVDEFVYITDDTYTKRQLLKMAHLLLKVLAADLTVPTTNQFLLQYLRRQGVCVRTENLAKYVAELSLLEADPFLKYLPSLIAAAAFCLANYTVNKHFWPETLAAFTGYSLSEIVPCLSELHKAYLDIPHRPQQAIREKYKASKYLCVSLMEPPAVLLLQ
Under “normalised enrichment score”, `TSVRRADFTGGSD [L7D]` is recorded as 0.0101.
`TSVRRALFRGGSD [T9R]` — result for “normalised enrichment score”: 0.726.
Under “normalised enrichment score”, `TSCRRALFTGGSD [V3C]` is recorded as 1.37.
For `TSVRRAWFTGGSD [L7W]`, “normalised enrichment score” read -0.401.
`TSVRRAVFTGGSD [L7V]`: “normalised enrichment score” 0.102.
`TSVRRALFTCGSD [G10C]`: “normalised enrichment score” 0.839.
For `TSVIRALFTGGSD [R4I]`, “normalised enrichment score” read -0.0193.
Under “normalised enrichment score”, `TSVRRALYTGGSD [F8Y]` is recorded as 0.0396.
`TNVRRALFTGGSD [S2N]`: “normalised enrichment score” 1.36.

Study 4 — method: aptamer microarray, sandwich; molecule type: DNA with 2'F-ANA; sample: in vitro; concentration: 200 nM; together with: Cy3 exosite-II aptamer, 400 nM; reading: higher = stronger binding; sequence: GGTTGGTGTGGTTGG
Target: Prothrombin, mature alpha-thrombin (F2, Homo sapiens, UniProt P00734)
Setting: whole 15-mer aptamer, many near background
For `2'F-ANA at 2 3 4 6 9 12 14 15`, “mean fluorescence intensity” read 275 a.u.
`2'F-ANA at 1 4 6 7 8 9 10 11 12 14 15` — result for “mean fluorescence intensity”: 50.6 a.u.
`2'F-ANA at 3 5 6 9 11 15`: “mean fluorescence intensity” 78.9 a.u.
For `2'F-ANA at 1 2 4 5 6 7 10 11 12`, “mean fluorescence intensity” read 48.9 a.u.
Under “mean fluorescence intensity”, `2'F-ANA at 1 2 7 8 11 12 14 15` is recorded as 70 a.u.
`2'F-ANA at 2 5 12 14` — result for “mean fluorescence intensity”: 46.1 a.u.
`2'F-ANA at 1 5 8 10 13`: “mean fluorescence intensity” 40.5 a.u.
`2'F-ANA at 2 5 6 7 8 11 12 15` — result for “mean fluorescence intensity”: 120 a.u.

For quick reference, copied from above (study 4):
`2'F-ANA at 3 5 6 9 11 15`: “mean fluorescence intensity” 78.9 a.u.
`2'F-ANA at 2 5 12 14` — result for “mean fluorescence intensity”: 46.1 a.u.
